Experimental data pooled from the literature.
Each line is one published result; not all experiments were run side by side. “And” joins repeats or separate records; there may be more than shown. Numbers after ± are the reported error.
AMY2: Pancreatic alpha-amylase (AMY2, Sus scrofa, UniProt P00690)
Chain of UniProt P00690 (whole entry, looked up): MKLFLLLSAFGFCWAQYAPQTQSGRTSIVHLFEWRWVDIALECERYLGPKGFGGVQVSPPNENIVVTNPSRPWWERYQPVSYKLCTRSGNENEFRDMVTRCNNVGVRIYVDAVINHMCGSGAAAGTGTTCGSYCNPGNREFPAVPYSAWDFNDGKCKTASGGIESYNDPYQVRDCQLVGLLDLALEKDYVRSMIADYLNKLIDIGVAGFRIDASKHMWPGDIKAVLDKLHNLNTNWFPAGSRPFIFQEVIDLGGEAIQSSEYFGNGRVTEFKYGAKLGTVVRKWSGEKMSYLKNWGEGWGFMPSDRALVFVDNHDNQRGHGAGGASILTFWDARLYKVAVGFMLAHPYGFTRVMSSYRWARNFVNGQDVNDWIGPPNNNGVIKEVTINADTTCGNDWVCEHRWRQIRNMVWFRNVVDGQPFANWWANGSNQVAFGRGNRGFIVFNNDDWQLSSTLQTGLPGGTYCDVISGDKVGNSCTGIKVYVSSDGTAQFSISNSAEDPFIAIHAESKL
SIRT3: NAD-dependent protein deacetylase sirtuin-3, mitochondrial (SIRT3, Homo sapiens, UniProt Q9NTG7)
Chain of UniProt P61073 (whole entry, looked up): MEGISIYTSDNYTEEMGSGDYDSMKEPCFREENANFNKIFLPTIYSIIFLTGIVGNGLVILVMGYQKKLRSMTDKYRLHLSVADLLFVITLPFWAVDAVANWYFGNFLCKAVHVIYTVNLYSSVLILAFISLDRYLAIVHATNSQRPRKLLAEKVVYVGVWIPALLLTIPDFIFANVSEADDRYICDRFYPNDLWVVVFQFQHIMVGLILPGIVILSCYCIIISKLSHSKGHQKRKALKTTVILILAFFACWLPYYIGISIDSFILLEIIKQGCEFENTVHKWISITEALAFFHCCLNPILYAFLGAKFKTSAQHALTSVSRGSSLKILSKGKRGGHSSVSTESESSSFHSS
Chain of UniProt Q9NTG7 (whole entry, looked up): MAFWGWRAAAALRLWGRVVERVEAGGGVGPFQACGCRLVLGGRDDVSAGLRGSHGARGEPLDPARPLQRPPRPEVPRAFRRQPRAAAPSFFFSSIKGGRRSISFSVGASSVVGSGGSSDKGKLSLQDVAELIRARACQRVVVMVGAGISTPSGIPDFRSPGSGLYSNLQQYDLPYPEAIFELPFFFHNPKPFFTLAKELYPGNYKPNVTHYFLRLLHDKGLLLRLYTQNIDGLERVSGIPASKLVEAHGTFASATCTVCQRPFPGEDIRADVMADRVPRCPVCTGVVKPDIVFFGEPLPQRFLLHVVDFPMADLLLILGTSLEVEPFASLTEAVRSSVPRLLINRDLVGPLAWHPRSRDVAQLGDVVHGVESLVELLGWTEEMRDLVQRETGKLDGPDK
Chain of UniProt Q9UPE1 (whole entry, looked up): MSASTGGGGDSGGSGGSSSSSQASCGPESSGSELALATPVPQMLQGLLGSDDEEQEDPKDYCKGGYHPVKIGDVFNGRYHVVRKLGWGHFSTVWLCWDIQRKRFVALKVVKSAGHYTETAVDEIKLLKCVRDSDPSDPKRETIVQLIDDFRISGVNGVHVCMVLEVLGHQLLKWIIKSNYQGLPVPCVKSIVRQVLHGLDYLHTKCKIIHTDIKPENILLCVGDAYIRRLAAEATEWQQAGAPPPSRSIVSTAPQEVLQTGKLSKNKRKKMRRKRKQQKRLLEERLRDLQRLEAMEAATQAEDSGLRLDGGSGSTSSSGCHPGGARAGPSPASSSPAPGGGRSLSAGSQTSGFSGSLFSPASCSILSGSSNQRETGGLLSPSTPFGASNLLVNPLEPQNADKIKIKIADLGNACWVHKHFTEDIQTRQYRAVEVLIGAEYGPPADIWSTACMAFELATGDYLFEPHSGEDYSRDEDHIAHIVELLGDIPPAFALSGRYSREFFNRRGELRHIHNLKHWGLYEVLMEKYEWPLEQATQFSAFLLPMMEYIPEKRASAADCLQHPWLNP
Chain of UniProt Q96EB6 (whole entry, looked up): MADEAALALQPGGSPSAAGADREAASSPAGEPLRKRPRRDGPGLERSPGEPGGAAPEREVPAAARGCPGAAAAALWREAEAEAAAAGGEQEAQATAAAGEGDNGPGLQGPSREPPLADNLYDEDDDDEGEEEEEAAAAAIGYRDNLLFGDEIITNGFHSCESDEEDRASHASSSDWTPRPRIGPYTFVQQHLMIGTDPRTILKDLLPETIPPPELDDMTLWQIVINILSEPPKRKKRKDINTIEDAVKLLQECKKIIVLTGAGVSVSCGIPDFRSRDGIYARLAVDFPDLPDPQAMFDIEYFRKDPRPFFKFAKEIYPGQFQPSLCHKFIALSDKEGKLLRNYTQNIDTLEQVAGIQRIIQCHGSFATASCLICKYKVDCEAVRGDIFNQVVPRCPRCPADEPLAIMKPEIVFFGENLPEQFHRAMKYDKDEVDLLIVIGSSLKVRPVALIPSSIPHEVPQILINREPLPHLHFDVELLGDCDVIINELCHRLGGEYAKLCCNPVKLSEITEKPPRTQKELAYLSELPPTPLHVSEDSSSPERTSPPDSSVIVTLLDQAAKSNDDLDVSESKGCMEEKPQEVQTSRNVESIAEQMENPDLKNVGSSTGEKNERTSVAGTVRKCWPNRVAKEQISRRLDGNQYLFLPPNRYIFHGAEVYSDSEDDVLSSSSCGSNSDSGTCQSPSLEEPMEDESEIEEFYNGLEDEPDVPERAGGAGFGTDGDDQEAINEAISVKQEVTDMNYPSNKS
Chain of UniProt Q4FZB7 (whole entry, looked up): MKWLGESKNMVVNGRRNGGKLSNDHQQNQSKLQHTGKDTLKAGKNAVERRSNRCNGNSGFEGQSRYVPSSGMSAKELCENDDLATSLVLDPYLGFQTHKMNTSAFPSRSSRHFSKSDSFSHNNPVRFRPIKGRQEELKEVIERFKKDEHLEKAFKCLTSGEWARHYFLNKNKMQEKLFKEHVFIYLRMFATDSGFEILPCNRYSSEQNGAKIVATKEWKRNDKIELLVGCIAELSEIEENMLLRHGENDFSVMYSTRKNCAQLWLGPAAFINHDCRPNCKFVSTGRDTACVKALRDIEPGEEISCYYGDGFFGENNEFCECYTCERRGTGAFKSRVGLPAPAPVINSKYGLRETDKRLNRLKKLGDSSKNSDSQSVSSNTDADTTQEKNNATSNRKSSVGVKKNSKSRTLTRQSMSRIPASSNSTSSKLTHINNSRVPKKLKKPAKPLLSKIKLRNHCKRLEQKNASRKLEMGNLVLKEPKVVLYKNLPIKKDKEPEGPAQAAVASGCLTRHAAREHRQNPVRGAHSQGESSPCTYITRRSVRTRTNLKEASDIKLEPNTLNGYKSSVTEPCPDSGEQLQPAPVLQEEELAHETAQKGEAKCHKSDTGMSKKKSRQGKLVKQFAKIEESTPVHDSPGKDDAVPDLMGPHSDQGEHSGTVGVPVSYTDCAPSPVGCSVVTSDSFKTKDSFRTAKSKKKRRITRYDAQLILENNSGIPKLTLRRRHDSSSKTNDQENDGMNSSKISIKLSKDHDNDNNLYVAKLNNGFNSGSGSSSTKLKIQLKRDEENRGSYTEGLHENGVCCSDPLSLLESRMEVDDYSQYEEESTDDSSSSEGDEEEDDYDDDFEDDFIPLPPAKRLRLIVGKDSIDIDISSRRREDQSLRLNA
Chain of UniProt P32745 (whole entry, looked up): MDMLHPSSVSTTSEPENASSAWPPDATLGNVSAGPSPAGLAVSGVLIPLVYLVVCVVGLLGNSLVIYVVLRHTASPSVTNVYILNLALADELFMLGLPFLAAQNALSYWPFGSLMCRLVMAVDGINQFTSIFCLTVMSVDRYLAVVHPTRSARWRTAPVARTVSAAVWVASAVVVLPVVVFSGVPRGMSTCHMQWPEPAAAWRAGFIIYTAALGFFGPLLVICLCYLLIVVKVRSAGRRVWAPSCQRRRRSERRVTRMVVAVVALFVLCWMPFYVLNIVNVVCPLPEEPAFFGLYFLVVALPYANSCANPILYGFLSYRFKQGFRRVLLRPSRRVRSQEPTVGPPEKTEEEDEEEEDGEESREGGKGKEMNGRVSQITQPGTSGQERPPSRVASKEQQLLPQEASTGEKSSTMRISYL
Chain of UniProt O08967 (whole entry, looked up): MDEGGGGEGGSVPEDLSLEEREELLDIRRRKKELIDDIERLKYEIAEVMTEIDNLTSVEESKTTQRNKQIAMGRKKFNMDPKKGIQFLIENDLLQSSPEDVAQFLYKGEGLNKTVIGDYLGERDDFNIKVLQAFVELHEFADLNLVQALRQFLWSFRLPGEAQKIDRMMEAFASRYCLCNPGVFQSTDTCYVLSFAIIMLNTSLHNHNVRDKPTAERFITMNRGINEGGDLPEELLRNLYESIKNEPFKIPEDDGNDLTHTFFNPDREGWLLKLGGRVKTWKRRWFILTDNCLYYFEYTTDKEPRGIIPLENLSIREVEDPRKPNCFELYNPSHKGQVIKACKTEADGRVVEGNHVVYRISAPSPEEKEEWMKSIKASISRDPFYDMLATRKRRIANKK
Chain of UniProt P28566 (whole entry, looked up): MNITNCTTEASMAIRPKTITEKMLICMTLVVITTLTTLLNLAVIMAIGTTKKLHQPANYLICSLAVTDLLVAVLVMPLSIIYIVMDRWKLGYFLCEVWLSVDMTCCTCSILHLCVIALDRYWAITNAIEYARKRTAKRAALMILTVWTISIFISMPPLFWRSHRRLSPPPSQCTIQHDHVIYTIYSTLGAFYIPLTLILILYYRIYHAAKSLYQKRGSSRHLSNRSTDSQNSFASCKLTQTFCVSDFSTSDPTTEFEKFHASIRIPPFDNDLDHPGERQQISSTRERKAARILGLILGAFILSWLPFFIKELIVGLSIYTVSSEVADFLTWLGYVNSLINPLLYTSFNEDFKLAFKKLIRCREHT

SMILES	target	assay	conditions	inhibition
O=C1c2sc(-c3ccc(N4CCC(F)C4)nc3F)nc2CCN1c1cccnc1 (stereo not drawn)	PCP site	radioligand binding	1 µM, added: antagonist radioligand	11%
COc1c(Br)c(O)c(Br)c2c1C(=O)CC(c1ccccc1)O2 (stereo not drawn)	AMY2	enzyme activity, inhibitor	50 µM, added: CNP-G3 substrate	43.8 ± 1.69%
Cc1ccc(CNC(=O)C(CCc2ccccc2)NC(=O)C(NC(=O)c2ccc(OCc3ccc(C(C)(C)C)cc3)cc2)C(C)O)cc1 (stereo not drawn)	Prothrombin (F2, Homo sapiens, UniProt P00734)	enzyme activity, inhibitor	100 µM	12%
c1ccc(OC[C@H]2CN(CCN3CCc4ccccc43)CCO2)nc1	HTR1B (Homo sapiens, UniProt P28222)	radioligand binding	concentration not given, added: [3H]5-CT	9.2%
CC(C)Cn1c(SCC(=O)N2CCc3ccccc3C2)nc2cc(Cl)ccc2c1=O	HTR1E (Homo sapiens, UniProt P28566)	ligand displacement, radioligand	10 µM	11%
CCCCCCCCCCCCNC(=S)NCCCC[C@H](NC(=O)OCc1ccccc1)C(=O)N1CCC[C@H]1C(=O)N[C@@H](CCCNC(=N)N)C(N)=O	SIRT1 (Homo sapiens, UniProt Q96EB6)	enzyme activity, inhibitor	10 µM	17%
CC(C)NC(=O)[C@H](CCc1ccccc1)NC(=O)[C@H](CC(=O)NCC(C)(C)C)NC(=O)CCc1ccccc1	trypsin	enzyme activity, inhibitor	100 µM	-4%
CN(C)CCCCCCNc1nc(NCCCCCN(C)C)nc2ccc(NC(=O)CCl)cc12	Histone-lysine N-methyltransferase SETDB1, triple Tudor domain (SETDB1, Homo sapiens, UniProt Q15047)		11.11 µM	93.7%
O=C(NC1CCC1)[C@H](Cc1c[nH]c2ccccc12)NC(=O)[C@H](CCCCNC(=S)NCCc1noc(=O)[nH]1)NS(=O)(=O)c1cccc(F)c1	SIRT3	deacylase activity	1 µM, added: NAD+ 500 µM	< 0%
C=C(NC(=O)[C@H](CCCCNC(=S)NCCCCCCCCCCCC)NC(=O)OCc1ccccc1)C(=O)N[C@@H](CCCNC(=N)N)C(N)=O	SIRT3	enzyme activity, inhibitor	1 µM	56%
Cc1ccc(CNC(=O)[C@H](CCc2ccccc2)NC(=O)[C@H](CC(=O)NCC(C)(C)C)NC(=O)c2ccc(OCc3ccccc3)cc2)cc1	chymotrypsin	enzyme activity, inhibitor	100 µM	-4%
O=C(Nc1ccccc1)Nc1ccccc1O	SRPK3 (Homo sapiens, UniProt Q9UPE1)	binding, KINOMEscan competitive binding	concentration not given	93.3%
O=C1c2sc(-c3ccc(N4CCC(CO)CC4)nc3F)nc2CCN1c1cccnc1	SLC6A2 (Homo sapiens, UniProt P23975)	ligand displacement, radioligand	1 µM	-16%
C/C=C/C(=O)Nc1ccc2nc(NCCCCCN(C)C)nc(NCCCCCCN(C)C)c2c1	KMT5B (Homo sapiens, UniProt Q4FZB7)	enzyme activity, inhibitor, radiometric	50 µM	67%
Cc1ccc(N(O)/N=N/c2ccc(S(=O)(=O)Nc3nccs3)cc2)cc1	AMY2	enzyme activity, inhibitor	120 µg/mL	21.1%
C[Si](C)(C)C[C@H](CN)CC(=O)O	SSTR3 (Homo sapiens, UniProt P32745)	ligand displacement, radioligand	250 µM	0%
CC(C)c1noc(CN2CC(C)N(Cc3nc(C(C)C)no3)c3ccccc32)n1 (stereo not drawn)	CXCR4 (Homo sapiens, UniProt P61073)	arrestin recruitment, DiscoverX arrestin	30 µM	69% and 75%
O=[N+]([O-])c1ccc(Cn2cc(Cn3cc(CO)nn3)nn2)cc1	Cytohesin-3, PH domain (Cyth3, Mus musculus, UniProt O08967)	PIP3 binding to PH domain, SPR	200 µM	64 ± 11%

Excerpt of the above:
SMILES	target	assay	conditions	inhibition
O=[N+]([O-])c1ccc(Cn2cc(Cn3cc(CO)nn3)nn2)cc1	Cytohesin-3, PH domain (Cyth3, Mus musculus, UniProt O08967)	PIP3 binding to PH domain, SPR	200 µM	64 ± 11%
